Measurements from different studies.
Lines come from different studies, so protocols differ. ± gives the spread as reported.

Compound	assay	test system	conditions	scale	measurement	value
CC(=CCC(O)C(C)=Cc1csc(C)n1)CC=CC(C)C(O)C(C)C(=O)C(C)(C)C(O)CC(=O)O (stereo not drawn)	–	human, plasma	intravenous infusion, 48 mg/m2 KOS-1584, 3 h infusion, cycle 1	–	AUC	484 ± 17 ng·h/mL
CC[C@H](C)[C@@H]1NC(=O)[C@H](CCCCN)NC(=O)[C@H](CCCCN)NC(=O)[C@H](Cc2ccc(O)cc2)NC(=O)[C@H](CC(C)C)NC(=O)[C@@H]2CCCN2C(=O)[C@H](C)NC(=O)CNC(=O)CNC(=O)[C@H](CO)NC(=O)CNC(=O)CNC(=O)[C@H](CO)NC(=O)[C@H](CCC(=O)O)NC(=O)[C@H](CC(C)C)NC(=O)[C@H](CC(C)C)NC(=O)[C@H](CCCNC(=N)N)NC(=O)[C@H](CCCCN)NC(=O)[C@H]([C@@H](C)CC)NC(=O)[C@H]([C@@H](C)CC)NC(=O)[C@H](CCCCN)NC(=O)[C@H](CCCCN)NC(=O)[C@H](Cc2ccc(O)cc2)NC(=O)[C@H](CC(C)C)NC(=O)[C@@H]2CCCN2C(=O)[C@H](C)NC(=O)CNC(=O)CNC(=O)[C@H](CO)NC(=O)CNC(=O)CNC(=O)[C@H](CO)NC(=O)[C@H](CCC(=O)O)NC(=O)[C@H](CC(C)C)NC(=O)[C@H](CC(C)C)NC(=O)[C@H](CCCNC(=N)N)NC(=O)[C@H](CCCCN)NC(=O)[C@H]([C@@H](C)CC)NC1=O	–	25% human serum	50 µM, 24 h	baseline: 0 h control	remaining intact peptide	75.8 ± 1.1%
CCN1CCCC1CNC(=O)c1cc(Br)cc(OC)c1O[11CH3] (stereo not drawn)	multiple-injection PET	rhesus monkey, brain	–	–	VND	3 mL/cm³
COc1ccc(C)cc1NC(=O)OC1CC2CCCC(C1)N2Cc1ccc(CC[18F])cc1 (stereo not drawn)	–	BALB/c mice, EMT6 tumour	1 h	baseline: tumour over lung	tumour to tissue ratio	0.42
O=P1(NCCCl)NCCCO1 (stereo not drawn)	–	rat, plasma	intravenous, 10 mg/kg CP, together with: ketoconazole 10 mg/kg oral 50 min before	–	Tmax	2.17 ± 0.931 h
CC[C@H](C)[C@H](NC(=O)[C@H](Cc1ccccc1)NC(=O)[C@H](CC(=O)O)NC(=O)[C@H](CCCNC(=N)N)NC(=O)[C@H](Cc1ccccc1)NC(=O)[C@H](Cc1ccccc1)NC(=O)[C@H](CCCCN)NC(=O)[C@H](CO)NC(=O)[C@H](CC(C)C)NC(=O)[C@H](CCCNC(=N)N)NC(=O)[C@H](CCSC)NC(=O)[C@H](C)N)C(=O)N[C@@H](CCCN)C(=O)N[C@@H](CCC(N)=O)C(=O)N[C@@H](CCCNC(=N)N)C(=O)N[C@@H](CCCCN)C(=O)N[C@@H](CCCCN)C(=O)O	circular dichroism	20% TFE in PBS	200 µM, pH 7.4, 25 °C	–	helicity	16.6%
CCCCCCCCCCCCCCC(=O)O.O=C1CCCC2C3CCCN4CCCC(CN12)C34 (stereo not drawn)	shake-flask	ultrapure water	pH 7.0, 25 °C	–	log octanol-water partition coefficient	0.46
CN(C)C(CNC(=O)Nc1cc(C(F)(F)F)ccc1N1CCOCC1)c1ccncc1 (stereo not drawn)	–	mouse, serum	intraperitoneal, 120 mg/kg single dose	–	serum AST	628 U/L
c1ccc(C2(CCNC3CCC4(SCCS4)c4ccccc43)CCOC3(CCCC3)C2)nc1 (stereo not drawn)	–	rats, brain	intravenous, dose not given, 0.25 h	–	concentration	403 ng/g
CC(C)[C@@H]1NC(=O)[C@H](Cc2ccccc2)NC(=O)[C@H](Cc2ccc(O)cc2)NC(=O)CCSSC[C@@H](C(=O)N2CCC[C@H]2C(=O)N[C@H](CCCNC(=N)N)C(=O)NCC(N)=O)NC(=O)[C@H](CCC(N)=O)NC1=O	–	Wistar rat	intravenous, 10 µg/kg single dose, 72 h	–	body weight	226 ± 10.9 g
CC(C)[C@H](NC(=O)CNC(=O)[C@H](CCC(N)=O)NC(=O)[C@H](C)N)C(=O)O	–	human	intravenous infusion, 90 mg/kg/h, 2 h infusion	–	subjects with moderate adverse events	0%
CN[C@](C)(C[18F])C(=O)O	–	SCID mouse A549 xenograft, spleen	15 min, post injection	–	tissue uptake	10 ± 1.9 %ID/g
CCN(Cc1ccccc1)C(=O)CCc1nc(CN2CCN(C(=O)Cc3ccc(OC)c(OC)c3)CC2)no1	LC-MS	rat, DRG	intravenous, 1 mg/kg, 15 min	–	concentration	140 ± 10 ng/g
[3H]c1sc(C)nc1C=C(C)C1CC2C(CCCC(C)C(O)C(C)C(=O)C(C)(C)C(O)CC(=O)O1)N2CCO (stereo not drawn)	whole-body autoradiography	CD2F1 mice, intestine contents	intravenous, 2.2 nmol/kg, 24 h	–	radioactivity in tissue	28.8 ± 26.6 µg-eq/g
CC[C@@H]1C[C@]1(NC(=O)[C@@H]1C[C@@]2(CN1C(=O)[C@@H](NC(=O)[C@@H](NC(=O)[C@@H]1CCCCN1C(C)C)C1CCCCC1)C(C)(C)C)C(C)(C)C21CCC1)C(=O)NS(=O)(=O)N1CCCC1	refers to: Pain	human	oral, 50 mg, simultaneous dosing on day 2, together with: ritonavir 100 mg	–	subjects with adverse event	0%
COC(=O)C[C@](O)(CCCC(C)(C)OC(C)=O)C(=O)O[C@@H]1C(OC)=C[C@]23CCCN2CCc2cc4c(cc2[C@H]13)OCO4	–	CD1 mouse, liver	subcutaneous, 1 mg/kg, 2 h	–	tissue concentration	112 ng/mL
COc1ccc(F)cc1S(=O)(=O)Nc1cnc2c(c1)C(=O)NCCO2	–	male C57BL/6 mouse, plasma	oral, 0.3 mg/kg, single dose	–	Cmax	59.7 ng/mL
O=C(O)CC[C@H](NC(=O)O[C@@H](CCCCNC(=O)c1ccc([18F])cc1)C(=O)O)C(=O)O	–	mouse, PC-3 PIP/flu xenografts, bone	180 min	–	tissue uptake	0.63 ± 0.14 %ID/g
[2H]C([2H])([2H])C([2H])([2H])C([2H])([2H])OC(C(=O)OC1CCNCC1)(c1ccccc1)c1ccccc1	–	healthy Japanese male	oral, 8 to 18 mg once daily, 16 days	–	diarrhoea incidence	14.3%
CC(C)C[C@H](NC(=O)[C@H](CCCCN)NC(=O)[C@H](CCC(=O)O)NC(=O)[C@H](C)NC(=O)[C@@H](NC(=O)[C@H](CCCCN)NC(=O)[C@H](CC(=O)O)NC(=O)[C@H](Cc1ccc(O)cc1)NC(=O)[C@H](Cc1ccccc1)NC(=O)[C@H](C)NC(=O)[C@H](CCCCN)NC(=O)[C@H](CC(C)C)NC(=O)[C@H](Cc1c[nH]c2ccccc12)NC(=O)[C@@H](N)CC(=O)O)C(C)C)C(=O)N[C@@H](CCCCN)C(=O)N[C@@H](CCC(=O)O)C(=O)N[C@@H](C)C(=O)N[C@@H](Cc1ccccc1)C(=O)N1CCC[C@H]1C(=O)N[C@@H](CC(=O)O)C(=O)N[C@@H](Cc1c[nH]c2ccccc12)C(=O)N[C@@H](C)C(=O)N[C@@H](CCCCN)C(=O)N[C@@H](C)C(=O)N[C@@H](C)C(=O)N[C@@H](Cc1ccc(O)cc1)C(=O)N[C@@H](CC(=O)O)C(=O)N[C@@H](CCCCN)C(=O)N[C@@H](C)C(=O)N[C@@H](C)C(=O)N[C@@H](CCC(=O)O)C(=O)N[C@@H](CCCCN)C(=O)N[C@@H](C)C(=O)N[C@@H](CCCCN)C(=O)N[C@@H](CCC(=O)O)C(=O)N[C@@H](C)C(=O)N[C@@H](C)C(=O)O	–	cynomolgus monkey female, plasma	intravenous infusion, 8 mg/kg, day 1, 30 min infusion	–	clearance	0.25 mL/min/kg
CCN(CC)c1ccc2c(-c3ccccc3C(=O)OCCC[18F])c3ccc(=[N+](CC)CC)cc-3oc2c1	microPET	rat, liver	dose not given, 5 min post injection	–	radioactivity concentration	65 ± 6 kBq/cm³

Repeated from above:
Compound	assay	test system	conditions	scale	measurement	value
CC(=CCC(O)C(C)=Cc1csc(C)n1)CC=CC(C)C(O)C(C)C(=O)C(C)(C)C(O)CC(=O)O (stereo not drawn)	–	human, plasma	intravenous infusion, 48 mg/m2 KOS-1584, 3 h infusion, cycle 1	–	AUC	484 ± 17 ng·h/mL
CC[C@H](C)[C@@H]1NC(=O)[C@H](CCCCN)NC(=O)[C@H](CCCCN)NC(=O)[C@H](Cc2ccc(O)cc2)NC(=O)[C@H](CC(C)C)NC(=O)[C@@H]2CCCN2C(=O)[C@H](C)NC(=O)CNC(=O)CNC(=O)[C@H](CO)NC(=O)CNC(=O)CNC(=O)[C@H](CO)NC(=O)[C@H](CCC(=O)O)NC(=O)[C@H](CC(C)C)NC(=O)[C@H](CC(C)C)NC(=O)[C@H](CCCNC(=N)N)NC(=O)[C@H](CCCCN)NC(=O)[C@H]([C@@H](C)CC)NC(=O)[C@H]([C@@H](C)CC)NC(=O)[C@H](CCCCN)NC(=O)[C@H](CCCCN)NC(=O)[C@H](Cc2ccc(O)cc2)NC(=O)[C@H](CC(C)C)NC(=O)[C@@H]2CCCN2C(=O)[C@H](C)NC(=O)CNC(=O)CNC(=O)[C@H](CO)NC(=O)CNC(=O)CNC(=O)[C@H](CO)NC(=O)[C@H](CCC(=O)O)NC(=O)[C@H](CC(C)C)NC(=O)[C@H](CC(C)C)NC(=O)[C@H](CCCNC(=N)N)NC(=O)[C@H](CCCCN)NC(=O)[C@H]([C@@H](C)CC)NC1=O	–	25% human serum	50 µM, 24 h	baseline: 0 h control	remaining intact peptide	75.8 ± 1.1%
